Published values pooled from the literature.
A part holds a random share of what one study measured.
Chain of UniProt P53355 (whole entry, looked up): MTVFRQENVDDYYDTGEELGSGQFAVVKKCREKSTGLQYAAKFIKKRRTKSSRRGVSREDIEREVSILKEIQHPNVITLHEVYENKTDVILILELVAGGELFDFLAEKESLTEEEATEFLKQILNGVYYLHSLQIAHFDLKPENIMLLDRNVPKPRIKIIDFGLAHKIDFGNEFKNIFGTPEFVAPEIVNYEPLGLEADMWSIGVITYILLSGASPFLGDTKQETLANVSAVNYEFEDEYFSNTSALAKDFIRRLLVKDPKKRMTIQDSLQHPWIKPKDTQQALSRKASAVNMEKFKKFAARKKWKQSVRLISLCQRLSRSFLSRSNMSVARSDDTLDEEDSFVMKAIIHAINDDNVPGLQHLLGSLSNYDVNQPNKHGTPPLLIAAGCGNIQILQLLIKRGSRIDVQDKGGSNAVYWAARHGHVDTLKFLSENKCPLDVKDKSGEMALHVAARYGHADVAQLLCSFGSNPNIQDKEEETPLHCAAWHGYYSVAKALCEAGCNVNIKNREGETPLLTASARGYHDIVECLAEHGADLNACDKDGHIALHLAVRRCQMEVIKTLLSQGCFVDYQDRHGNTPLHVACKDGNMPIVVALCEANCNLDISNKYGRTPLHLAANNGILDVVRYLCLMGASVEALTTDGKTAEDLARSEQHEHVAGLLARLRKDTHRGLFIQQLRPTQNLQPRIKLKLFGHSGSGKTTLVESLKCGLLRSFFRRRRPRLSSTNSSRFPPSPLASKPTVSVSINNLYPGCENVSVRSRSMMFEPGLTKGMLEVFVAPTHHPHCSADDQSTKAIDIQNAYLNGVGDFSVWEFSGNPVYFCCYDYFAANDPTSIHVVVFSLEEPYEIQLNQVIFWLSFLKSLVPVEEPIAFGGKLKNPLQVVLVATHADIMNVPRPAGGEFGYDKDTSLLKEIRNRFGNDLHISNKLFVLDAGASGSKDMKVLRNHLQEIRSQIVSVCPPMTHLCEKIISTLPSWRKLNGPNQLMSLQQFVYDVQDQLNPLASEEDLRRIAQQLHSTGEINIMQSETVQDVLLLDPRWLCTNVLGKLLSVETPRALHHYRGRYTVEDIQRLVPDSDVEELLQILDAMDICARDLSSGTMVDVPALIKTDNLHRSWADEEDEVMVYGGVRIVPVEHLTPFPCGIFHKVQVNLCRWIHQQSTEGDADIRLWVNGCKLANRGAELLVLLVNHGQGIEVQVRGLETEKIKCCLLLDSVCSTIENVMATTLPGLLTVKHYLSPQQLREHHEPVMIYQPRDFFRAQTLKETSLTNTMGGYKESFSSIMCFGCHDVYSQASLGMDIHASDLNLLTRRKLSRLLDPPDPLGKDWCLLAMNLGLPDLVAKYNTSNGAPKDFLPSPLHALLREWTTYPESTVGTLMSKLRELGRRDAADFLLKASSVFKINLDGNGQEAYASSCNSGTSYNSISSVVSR
Chain of UniProt P15735 (whole entry, looked up): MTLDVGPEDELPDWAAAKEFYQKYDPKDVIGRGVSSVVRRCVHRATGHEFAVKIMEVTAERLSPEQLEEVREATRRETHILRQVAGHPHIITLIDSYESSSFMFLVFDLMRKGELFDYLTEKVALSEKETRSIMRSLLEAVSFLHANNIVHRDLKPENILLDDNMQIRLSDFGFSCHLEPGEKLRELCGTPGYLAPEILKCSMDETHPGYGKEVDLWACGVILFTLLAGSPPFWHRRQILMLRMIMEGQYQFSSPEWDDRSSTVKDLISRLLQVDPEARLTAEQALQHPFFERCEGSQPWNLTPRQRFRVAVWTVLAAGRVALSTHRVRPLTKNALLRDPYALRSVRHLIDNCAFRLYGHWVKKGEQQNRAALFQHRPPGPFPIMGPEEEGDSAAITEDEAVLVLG
Chain of UniProt O14965 (whole entry, looked up): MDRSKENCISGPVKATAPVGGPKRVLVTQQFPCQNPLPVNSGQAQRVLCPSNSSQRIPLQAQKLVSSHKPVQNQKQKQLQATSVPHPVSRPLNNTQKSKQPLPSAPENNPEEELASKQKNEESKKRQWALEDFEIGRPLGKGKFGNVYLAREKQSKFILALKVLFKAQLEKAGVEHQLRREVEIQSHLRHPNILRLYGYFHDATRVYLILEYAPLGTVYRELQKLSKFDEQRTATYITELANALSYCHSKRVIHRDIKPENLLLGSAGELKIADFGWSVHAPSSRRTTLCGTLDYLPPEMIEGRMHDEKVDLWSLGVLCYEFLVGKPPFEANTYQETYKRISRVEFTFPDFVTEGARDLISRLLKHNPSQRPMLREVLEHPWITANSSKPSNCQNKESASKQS
Chain of UniProt Q07002 (whole entry, looked up): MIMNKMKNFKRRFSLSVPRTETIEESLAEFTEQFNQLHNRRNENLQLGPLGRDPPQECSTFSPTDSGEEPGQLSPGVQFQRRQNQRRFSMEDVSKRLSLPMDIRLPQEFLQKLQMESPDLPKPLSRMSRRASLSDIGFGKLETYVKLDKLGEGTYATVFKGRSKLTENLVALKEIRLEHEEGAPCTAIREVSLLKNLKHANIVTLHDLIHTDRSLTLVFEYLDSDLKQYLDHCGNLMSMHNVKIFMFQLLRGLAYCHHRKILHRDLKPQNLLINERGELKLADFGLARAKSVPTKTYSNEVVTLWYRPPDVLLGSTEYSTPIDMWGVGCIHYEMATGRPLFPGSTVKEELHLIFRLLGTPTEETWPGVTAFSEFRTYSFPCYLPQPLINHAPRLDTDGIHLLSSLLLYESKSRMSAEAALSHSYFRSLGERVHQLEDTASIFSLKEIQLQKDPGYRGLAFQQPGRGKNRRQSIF

Study 1
SMILES: CNC(=O)c1ccc(Nc2ncc(C(F)(F)F)c(NCc3nccnc3N(C)S(C)(=O)=O)n2)cc1
Technique: competition with immobilised ligand
PIK3CA (Homo sapiens, UniProt P42336, E542K); cell-free assay; 0.1 µM — remaining binding: 49%.
It gave 89% for remaining binding (PRKCQ (Homo sapiens, UniProt Q04759); cell-free assay; 0.1 µM).
It gave 50% for remaining binding (Aurora kinase A (AURKA, Homo sapiens, UniProt O14965); cell-free assay; 0.1 µM).
It gave 100% for remaining binding (PRKAA2 (Homo sapiens, UniProt P54646); cell-free assay; 0.1 µM).
CDK18 (Homo sapiens, UniProt Q07002); cell-free assay; 0.1 µM — remaining binding: 68%.
Tyrosine-protein kinase ABL1, non-phosphorylated (ABL1, Homo sapiens, UniProt P00519, F317L); cell-free assay; 0.1 µM — remaining binding: 100%.
ANKK1 (Homo sapiens, UniProt Q8NFD2); cell-free assay; 0.1 µM — remaining binding: 88%.
The remaining binding was 95% (MAP3K15 (Homo sapiens, UniProt Q6ZN16); cell-free assay; 0.1 µM).
It gave 100% for remaining binding (Tyrosine-protein kinase ABL1, phosphorylated (ABL1, Homo sapiens, UniProt P00519, H396P); cell-free assay; 0.1 µM).
For STK35 (Homo sapiens, UniProt Q8TDR2); cell-free assay; 0.1 µM: remaining binding read 100%.
For MAP4K2 (Homo sapiens, UniProt Q12851); cell-free assay; 0.1 µM: remaining binding read 100%.
For STK38L (Homo sapiens, UniProt Q9Y2H1); cell-free assay; 0.1 µM: remaining binding read 73%.
The remaining binding was 0.2% (FLT3 (Homo sapiens, UniProt P36888, D835V); binding; 1 µM).
CDK3 (Homo sapiens, UniProt Q00526); cell-free assay; 0.1 µM — remaining binding: 100%.
The remaining binding was 75% (PHKG2 (Homo sapiens, UniProt P15735); cell-free assay; 0.1 µM).
BLK (Homo sapiens, UniProt P51451); cell-free assay; 0.1 µM — remaining binding: 78%.
The remaining binding was 100% (PRKCD (Homo sapiens, UniProt Q05655); cell-free assay; 0.1 µM).
The remaining binding was 88% (EGFR (Homo sapiens, UniProt P00533); cell-free assay; 0.1 µM).
It gave 82% for remaining binding (DAPK1 (Homo sapiens, UniProt P53355); cell-free assay; 0.1 µM).

Study 2
Target: Synaptic vesicular amine transporter (SLC18A2, Homo sapiens, UniProt Q05940)
Chain of UniProt Q05940 (whole entry, looked up): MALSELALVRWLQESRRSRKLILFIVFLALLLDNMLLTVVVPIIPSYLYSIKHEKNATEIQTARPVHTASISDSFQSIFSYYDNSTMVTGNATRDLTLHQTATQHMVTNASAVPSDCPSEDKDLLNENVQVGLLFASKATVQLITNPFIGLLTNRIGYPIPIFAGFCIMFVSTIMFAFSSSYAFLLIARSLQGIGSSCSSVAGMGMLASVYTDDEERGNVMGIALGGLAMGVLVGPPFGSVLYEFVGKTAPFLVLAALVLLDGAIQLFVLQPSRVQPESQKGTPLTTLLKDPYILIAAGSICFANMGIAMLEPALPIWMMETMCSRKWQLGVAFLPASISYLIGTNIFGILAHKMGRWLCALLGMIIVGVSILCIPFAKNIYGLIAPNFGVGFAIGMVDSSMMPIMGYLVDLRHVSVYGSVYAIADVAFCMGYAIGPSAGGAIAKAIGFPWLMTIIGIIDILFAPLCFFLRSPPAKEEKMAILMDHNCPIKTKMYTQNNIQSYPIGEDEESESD
Effect on: transporter uptake
Mode: inhibitor
With `CC(C)c1nc(CN(C)C(=O)N[C@@H](CCN2CCOCC2)C(=O)N[C@H](CC[C@H](Cc2ccccc2)NC(=O)OCc2cncs2)Cc2ccccc2)cs1` the IC50 was 5.1 µM.
The IC50 of `CCCc1nn(C)c2c(=O)[nH]c(-c3cc(S(=O)(=O)N4CCN(C)CC4)ccc3OCC)nc12` is reported as 3.96 µM.
`CCCSc1nc(N[C@@H]2C[C@H]2c2ccc(F)c(F)c2)c2nnn([C@@H]3C[C@H](OCCO)[C@@H](O)[C@H]3O)c2n1` has an IC50 of 1.27 µM.
For `COc1c(OCCCN2CCOCC2)ccc2c1N=C(NC(=O)c1cnc(N)nc1)N1CCN=C21`, the IC50 was 11.1 µM.
`COc1ccc(CCN2CCC(Nc3nc4ccccc4n3Cc3ccc(F)cc3)CC2)cc1` gave an IC50 of 0.107 µM.
`Oc1ccc(CCNCCCCCCNCCc2ccccc2)cc1O` gave an IC50 of 0.041 µM.
For `CC(CCc1ccc(O)cc1)NCCc1ccc(O)c(O)c1` (stereo not shown), the IC50 was 0.128 µM.
`COc1cc2nc(N3CCN(C(=O)C4CCCO4)CC3)nc(N)c2cc1OC` (stereo not shown) gave an IC50 of 0.313 µM.
For `O=C(c1ccc(F)c(F)c1Nc1ccc(I)cc1F)N1CC(O)([C@@H]2CCCCN2)C1`, the IC50 was 3.53 µM.

Study 3
Target: Beta-1 adrenergic receptor (ADRB1, Homo sapiens, UniProt P08588)
Chain of UniProt P08588 (whole entry, looked up): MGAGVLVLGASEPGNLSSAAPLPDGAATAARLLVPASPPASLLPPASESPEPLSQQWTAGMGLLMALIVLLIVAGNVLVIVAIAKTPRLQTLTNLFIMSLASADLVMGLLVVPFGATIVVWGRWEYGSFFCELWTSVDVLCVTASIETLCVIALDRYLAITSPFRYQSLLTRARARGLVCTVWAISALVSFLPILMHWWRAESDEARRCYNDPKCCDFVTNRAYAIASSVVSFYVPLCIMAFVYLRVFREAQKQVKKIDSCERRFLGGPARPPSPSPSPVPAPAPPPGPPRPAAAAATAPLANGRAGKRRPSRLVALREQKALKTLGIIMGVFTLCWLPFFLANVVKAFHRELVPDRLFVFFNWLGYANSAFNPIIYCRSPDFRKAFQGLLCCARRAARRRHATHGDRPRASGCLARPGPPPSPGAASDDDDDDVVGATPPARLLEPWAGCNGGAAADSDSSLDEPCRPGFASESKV
Mode: agonist
The EC50 of `Cc1ccc2c(C(=O)N3CCCC3C)cc(-c3cnn(C)c3)nc2c1` (stereo not shown) is reported as at least 100 µM.
The EC50 of `OC(CNc1ncccn1)c1ccccc1` (stereo not shown) is reported as at least 100 µM.
`CC(O)CN1CCN(c2cnc3ccccc3n2)CC1C` (stereo not shown) gave an EC50 of at least 100 µM.
For `O=C(Nc1ccc([C@@H](O)[C@H]2COCC(=O)N2Cc2ccc(F)cc2)cc1)c1ccccc1`, the EC50 was at least 100 µM.
For `Cc1nc(-c2ccccc2)ccc1C(=O)NC1CCc2[nH]ncc2C1` (stereo not shown), the EC50 was at least 100 µM.
`COc1ccccc1N1CCN(C(=O)c2cc(Br)cn2C(C)C)CC1` gave an EC50 of at least 100 µM.
`Cc1ccccc1-n1nc(-c2c(-c3ccc(F)cc3)nn3c2NC[C@@H](CO)C3)ccc1=O` has an EC50 of at least 100 µM.
`Fc1ccc(-c2c[nH]c([C@@H]3COCCN3Cc3cnc4ccccc4c3)n2)c(F)c1` gave an EC50 of at least 100 µM.

Study 4
Target: Platelet-derived growth factor receptor alpha (PDGFRA, Homo sapiens, UniProt P16234)
Chain of UniProt P16234 (whole entry, looked up): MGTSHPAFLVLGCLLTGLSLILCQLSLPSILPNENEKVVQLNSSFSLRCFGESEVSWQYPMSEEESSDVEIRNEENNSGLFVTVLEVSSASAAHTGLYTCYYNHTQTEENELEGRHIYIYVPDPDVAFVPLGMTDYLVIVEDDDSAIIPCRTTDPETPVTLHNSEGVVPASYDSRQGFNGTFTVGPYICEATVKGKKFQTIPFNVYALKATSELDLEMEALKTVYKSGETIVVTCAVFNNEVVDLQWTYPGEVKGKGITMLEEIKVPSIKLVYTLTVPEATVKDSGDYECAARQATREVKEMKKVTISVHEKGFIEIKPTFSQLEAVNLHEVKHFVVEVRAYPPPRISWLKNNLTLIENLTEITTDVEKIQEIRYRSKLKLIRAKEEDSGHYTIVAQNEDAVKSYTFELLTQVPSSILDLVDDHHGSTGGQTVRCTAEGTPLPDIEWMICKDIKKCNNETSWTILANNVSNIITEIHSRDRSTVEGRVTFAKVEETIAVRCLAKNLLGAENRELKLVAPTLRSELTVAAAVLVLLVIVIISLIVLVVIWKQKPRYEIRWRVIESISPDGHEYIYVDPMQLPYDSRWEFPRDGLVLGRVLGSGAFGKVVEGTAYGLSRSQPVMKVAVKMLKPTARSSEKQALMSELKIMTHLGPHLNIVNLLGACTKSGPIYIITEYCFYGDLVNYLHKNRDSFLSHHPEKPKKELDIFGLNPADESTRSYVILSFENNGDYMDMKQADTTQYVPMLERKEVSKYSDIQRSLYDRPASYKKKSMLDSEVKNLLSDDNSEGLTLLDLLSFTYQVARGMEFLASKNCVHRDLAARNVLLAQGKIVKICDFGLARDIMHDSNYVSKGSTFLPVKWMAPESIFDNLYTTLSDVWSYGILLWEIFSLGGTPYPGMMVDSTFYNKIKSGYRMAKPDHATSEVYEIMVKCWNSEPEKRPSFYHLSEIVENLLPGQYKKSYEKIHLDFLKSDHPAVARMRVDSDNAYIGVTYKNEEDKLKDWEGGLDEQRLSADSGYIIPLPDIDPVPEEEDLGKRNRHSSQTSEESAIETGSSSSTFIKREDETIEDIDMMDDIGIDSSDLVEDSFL
Effect on: enzyme activity
Mode: inhibitor
Tested at: 0.5 µM
Relative to: control
For `c1ccc(-c2cnc(Nc3ccc(OCCN4CCCC4)cc3)s2)cc1`, the remaining activity was 57.4%.
For `CN([C@@H](Cc1ccc(OS(=O)(=O)c2cccc3cnccc23)cc1)C(=O)N1CCN(c2ccccc2)CC1)S(=O)(=O)c1cccc2cnccc12`, the remaining activity was 99.6%.
With `O=C1C(Cl)=C(N2C(=O)CCC2=O)C(=O)c2ccccc21` the remaining activity was 109%.
`C[C@@H]1CCN(C(=O)CC#N)C[C@@H]1N(C)c1ncnc2[nH]ccc12` has a remaining activity of 104%.
For `COc1cc2c(cc1OC)-c1[nH]nc(Nc3cccc(F)c3)c1C2`, the remaining activity was 33.4%.
With `c1ccc(-c2[nH]ncc2-c2ccnc3ccccc23)nc1` the remaining activity was 98.1%.
With `Cc1nc2cc3nc(-c4cccs4)cnc3cc2n1C` the remaining activity was 23.8%.
With `O=C1c2ccccc2-c2n[nH]c3cccc1c23` the remaining activity was 101%.
The remaining activity of `COc1cc2ncnc(Nc3ccc(O)c(Br)c3)c2cc1OC` is reported as 88.9%.
With `Nc1cccc(-c2cc3c(Oc4cccc(O)c4)ncnc3[nH]2)c1` the remaining activity was 73.6%.
